Experimental data from different studies.
Every numbered part comes from another study and shows a few of its results, in no order. Values joined by “and” are separate records of one study, mostly repeats; a detail may differ.
Chain of UniProt Q96GX5 (whole entry, looked up): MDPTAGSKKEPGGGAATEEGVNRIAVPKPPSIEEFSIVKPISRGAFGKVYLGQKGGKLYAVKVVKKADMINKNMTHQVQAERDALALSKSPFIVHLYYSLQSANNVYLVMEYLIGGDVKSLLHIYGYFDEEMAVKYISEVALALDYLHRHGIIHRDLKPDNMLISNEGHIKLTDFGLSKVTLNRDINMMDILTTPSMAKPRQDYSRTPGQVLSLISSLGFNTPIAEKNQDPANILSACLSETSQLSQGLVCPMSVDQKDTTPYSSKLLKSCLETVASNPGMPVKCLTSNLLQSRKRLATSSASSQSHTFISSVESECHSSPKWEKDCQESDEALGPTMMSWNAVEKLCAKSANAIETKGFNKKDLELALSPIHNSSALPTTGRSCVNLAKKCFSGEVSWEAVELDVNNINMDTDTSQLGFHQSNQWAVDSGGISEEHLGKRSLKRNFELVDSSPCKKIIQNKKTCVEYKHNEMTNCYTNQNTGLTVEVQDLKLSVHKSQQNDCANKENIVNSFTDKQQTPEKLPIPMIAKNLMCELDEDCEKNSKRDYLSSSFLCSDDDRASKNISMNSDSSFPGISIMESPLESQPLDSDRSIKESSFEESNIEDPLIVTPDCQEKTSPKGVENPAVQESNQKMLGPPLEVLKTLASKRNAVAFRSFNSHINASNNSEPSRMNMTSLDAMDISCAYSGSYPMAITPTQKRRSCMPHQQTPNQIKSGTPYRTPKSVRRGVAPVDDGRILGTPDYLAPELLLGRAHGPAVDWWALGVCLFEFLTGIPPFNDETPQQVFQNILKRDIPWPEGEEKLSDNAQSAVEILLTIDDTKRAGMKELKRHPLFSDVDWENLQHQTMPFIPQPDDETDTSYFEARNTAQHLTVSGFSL
Chain of UniProt O14965 (whole entry, looked up): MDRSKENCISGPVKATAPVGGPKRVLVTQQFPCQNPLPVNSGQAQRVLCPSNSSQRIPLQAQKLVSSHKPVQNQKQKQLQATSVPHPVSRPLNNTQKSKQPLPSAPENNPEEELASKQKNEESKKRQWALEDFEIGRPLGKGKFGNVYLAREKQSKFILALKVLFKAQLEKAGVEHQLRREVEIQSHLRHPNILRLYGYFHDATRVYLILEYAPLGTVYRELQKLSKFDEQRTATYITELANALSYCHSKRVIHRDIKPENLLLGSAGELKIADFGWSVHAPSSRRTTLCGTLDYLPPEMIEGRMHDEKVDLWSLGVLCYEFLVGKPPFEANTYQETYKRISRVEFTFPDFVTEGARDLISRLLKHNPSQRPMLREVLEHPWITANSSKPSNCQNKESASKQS
Chain of UniProt P42336 (whole entry, unmodified, looked up): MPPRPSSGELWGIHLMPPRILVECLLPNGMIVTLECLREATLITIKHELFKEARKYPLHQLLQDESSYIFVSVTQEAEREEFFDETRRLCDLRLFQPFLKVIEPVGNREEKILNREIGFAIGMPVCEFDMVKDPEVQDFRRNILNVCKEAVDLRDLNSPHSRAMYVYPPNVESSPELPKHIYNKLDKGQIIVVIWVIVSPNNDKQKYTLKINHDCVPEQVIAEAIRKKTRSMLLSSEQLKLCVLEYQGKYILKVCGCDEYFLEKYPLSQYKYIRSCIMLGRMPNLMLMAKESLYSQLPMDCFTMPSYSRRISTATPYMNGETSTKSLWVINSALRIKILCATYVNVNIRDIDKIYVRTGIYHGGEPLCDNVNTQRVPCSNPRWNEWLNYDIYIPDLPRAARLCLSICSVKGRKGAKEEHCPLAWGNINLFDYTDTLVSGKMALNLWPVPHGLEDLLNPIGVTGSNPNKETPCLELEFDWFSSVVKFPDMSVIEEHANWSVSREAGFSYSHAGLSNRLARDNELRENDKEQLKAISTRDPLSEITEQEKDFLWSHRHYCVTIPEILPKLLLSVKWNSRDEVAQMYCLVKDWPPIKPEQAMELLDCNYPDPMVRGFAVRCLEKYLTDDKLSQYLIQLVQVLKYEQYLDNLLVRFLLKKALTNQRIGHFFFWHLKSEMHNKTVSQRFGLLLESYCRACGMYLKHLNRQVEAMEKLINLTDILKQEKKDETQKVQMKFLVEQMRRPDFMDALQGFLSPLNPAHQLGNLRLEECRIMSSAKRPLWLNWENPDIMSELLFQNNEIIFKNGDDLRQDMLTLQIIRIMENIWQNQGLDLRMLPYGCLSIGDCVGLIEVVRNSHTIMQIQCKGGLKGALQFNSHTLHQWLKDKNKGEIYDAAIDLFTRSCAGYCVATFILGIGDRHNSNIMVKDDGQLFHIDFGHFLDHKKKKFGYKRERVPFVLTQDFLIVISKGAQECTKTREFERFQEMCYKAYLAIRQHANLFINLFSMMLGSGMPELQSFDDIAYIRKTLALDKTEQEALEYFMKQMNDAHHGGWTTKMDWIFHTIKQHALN
Chain of UniProt Q13233 (whole entry, looked up): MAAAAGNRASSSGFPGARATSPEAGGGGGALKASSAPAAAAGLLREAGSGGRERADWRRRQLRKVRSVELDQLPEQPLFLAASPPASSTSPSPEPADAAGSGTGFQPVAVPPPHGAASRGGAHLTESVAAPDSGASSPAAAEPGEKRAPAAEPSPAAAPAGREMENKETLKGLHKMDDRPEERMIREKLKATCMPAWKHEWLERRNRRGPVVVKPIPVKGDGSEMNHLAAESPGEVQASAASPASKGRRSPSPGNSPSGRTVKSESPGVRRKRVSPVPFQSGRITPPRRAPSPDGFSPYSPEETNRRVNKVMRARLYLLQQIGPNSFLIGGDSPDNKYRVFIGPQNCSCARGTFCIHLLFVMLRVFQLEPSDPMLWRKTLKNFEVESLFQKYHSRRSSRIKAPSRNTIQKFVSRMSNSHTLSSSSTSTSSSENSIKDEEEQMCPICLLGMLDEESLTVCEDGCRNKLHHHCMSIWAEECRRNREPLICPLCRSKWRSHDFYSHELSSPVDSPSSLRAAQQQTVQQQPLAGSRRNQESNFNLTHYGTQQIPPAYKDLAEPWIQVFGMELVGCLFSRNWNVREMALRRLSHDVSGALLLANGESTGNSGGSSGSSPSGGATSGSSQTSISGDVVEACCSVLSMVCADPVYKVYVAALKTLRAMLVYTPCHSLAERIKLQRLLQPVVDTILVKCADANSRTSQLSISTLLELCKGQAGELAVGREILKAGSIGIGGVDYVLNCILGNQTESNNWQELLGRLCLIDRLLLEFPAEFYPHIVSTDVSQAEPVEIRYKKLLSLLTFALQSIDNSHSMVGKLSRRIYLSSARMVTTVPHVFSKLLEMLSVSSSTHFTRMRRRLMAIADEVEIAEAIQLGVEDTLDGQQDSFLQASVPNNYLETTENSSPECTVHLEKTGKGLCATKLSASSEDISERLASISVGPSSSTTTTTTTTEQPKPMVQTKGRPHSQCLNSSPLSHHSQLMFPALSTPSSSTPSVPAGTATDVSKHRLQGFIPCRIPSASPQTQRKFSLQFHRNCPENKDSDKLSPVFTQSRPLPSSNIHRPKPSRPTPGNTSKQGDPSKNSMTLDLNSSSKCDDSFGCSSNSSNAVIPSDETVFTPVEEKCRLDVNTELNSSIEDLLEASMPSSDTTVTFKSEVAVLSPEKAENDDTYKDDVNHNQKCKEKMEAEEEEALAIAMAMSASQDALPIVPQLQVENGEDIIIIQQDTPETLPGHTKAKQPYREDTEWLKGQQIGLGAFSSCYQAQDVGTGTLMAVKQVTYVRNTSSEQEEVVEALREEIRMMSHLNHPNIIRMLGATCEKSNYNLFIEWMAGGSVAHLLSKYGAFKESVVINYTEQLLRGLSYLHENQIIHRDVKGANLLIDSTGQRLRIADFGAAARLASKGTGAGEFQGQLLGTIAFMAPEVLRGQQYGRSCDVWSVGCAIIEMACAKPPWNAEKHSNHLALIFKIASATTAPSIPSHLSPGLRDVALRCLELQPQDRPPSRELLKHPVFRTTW
Chain of UniProt Q9UIK4 (whole entry, looked up): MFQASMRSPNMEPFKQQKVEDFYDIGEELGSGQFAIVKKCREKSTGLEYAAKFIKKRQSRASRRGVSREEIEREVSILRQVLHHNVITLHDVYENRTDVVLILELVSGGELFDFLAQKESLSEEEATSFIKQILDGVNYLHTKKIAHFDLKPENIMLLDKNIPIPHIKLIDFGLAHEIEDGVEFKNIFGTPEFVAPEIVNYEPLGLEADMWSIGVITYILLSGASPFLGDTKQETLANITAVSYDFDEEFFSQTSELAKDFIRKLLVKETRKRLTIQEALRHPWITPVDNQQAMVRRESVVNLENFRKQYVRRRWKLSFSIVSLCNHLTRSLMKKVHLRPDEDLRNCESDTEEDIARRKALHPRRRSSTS
Chain of UniProt Q9NQU5 (whole entry, looked up): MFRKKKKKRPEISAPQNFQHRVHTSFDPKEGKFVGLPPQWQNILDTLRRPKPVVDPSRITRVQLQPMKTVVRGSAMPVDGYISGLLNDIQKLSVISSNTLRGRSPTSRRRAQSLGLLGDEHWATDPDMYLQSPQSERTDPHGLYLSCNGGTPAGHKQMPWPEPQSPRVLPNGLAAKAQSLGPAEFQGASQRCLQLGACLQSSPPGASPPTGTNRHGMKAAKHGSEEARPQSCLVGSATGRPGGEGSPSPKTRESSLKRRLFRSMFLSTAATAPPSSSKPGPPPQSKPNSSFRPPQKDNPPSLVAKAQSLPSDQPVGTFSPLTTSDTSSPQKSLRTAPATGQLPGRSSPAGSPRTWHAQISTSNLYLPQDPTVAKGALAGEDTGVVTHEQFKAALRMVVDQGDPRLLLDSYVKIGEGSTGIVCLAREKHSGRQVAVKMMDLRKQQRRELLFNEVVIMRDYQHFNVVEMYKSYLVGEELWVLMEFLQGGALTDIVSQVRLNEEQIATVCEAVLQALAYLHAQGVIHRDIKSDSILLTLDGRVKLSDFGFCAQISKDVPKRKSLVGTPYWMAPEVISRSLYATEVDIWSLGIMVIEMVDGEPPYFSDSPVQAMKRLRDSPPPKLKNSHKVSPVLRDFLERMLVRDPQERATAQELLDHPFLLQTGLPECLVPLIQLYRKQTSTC

Sample 1
SMILES: CCCCN(CCCC)C(=O)CN1C[C@@H](c2cc(OC)c3c(c2)OCO3)[C@H](C(=O)O)[C@H]1CC(C)(C)CCC
Observed: cell-free assay
Method: competition with immobilised ligand
Tested at: 1 µM
target	remaining binding
cAMP-dependent protein kinase catalytic subunit alpha (PRKACA, Homo sapiens, UniProt P17612)	81.9%
Epidermal growth factor receptor (EGFR, Homo sapiens, UniProt P00533, G719S)	100%
Mitogen-activated protein kinase kinase kinase kinase 5 (MAP4K5, Homo sapiens, UniProt Q9Y4K4)	100%
Phosphatidylinositol 4,5-bisphosphate 3-kinase catalytic subunit alpha isoform (PIK3CA, Homo sapiens, UniProt P42336, E545A)	77.9%
Interleukin-1 receptor-associated kinase 4 (IRAK4, Homo sapiens, UniProt Q9NWZ3)	94.5%
Cyclin-dependent kinase-like 1 (CDKL1, Homo sapiens, UniProt Q00532)	74.9%
Serine/threonine-protein kinase PAK 3 (PAK3, Homo sapiens, UniProt O75914)	89.4%
Death-associated protein kinase 2 (DAPK2, Homo sapiens, UniProt Q9UIK4)	99.6%
Tyrosine-protein kinase Srms (SRMS, Homo sapiens, UniProt Q9H3Y6)	90.6%
MAP/microtubule affinity-regulating kinase 3 (MARK3, Homo sapiens, UniProt P27448)	93.7%
Rhodopsin kinase GRK7 (GRK7, Homo sapiens, UniProt Q8WTQ7)	90.8%
Mitogen-activated protein kinase 10 (MAPK10, Homo sapiens, UniProt P53779)	100%
Mitogen-activated protein kinase kinase kinase 1 (MAP3K1, Homo sapiens, UniProt Q13233)	100%
Insulin receptor-related protein (INSRR, Homo sapiens, UniProt P14616)	93.2%
Tyrosine-protein kinase ABL1, non-phosphorylated (ABL1, Homo sapiens, UniProt P00519, Q252H)	100%
Microtubule-associated serine/threonine-protein kinase 1 (MAST1, Homo sapiens, UniProt Q9Y2H9)	100%

Sample 2
Cell line: mouse MPNST tumor cells
Method: high-content nuclear imaging
Measured: cell number
Tested at: 10 µM
Time: 12 h
Notes: mean of 2 replicates
Relative to: plate mean
Direction: higher = more cells
Compound	nuclei count
CCN1C(C)(C)CC(Oc2ccc(C(=O)Nc3ccc(NC(=O)Nc4cc(C(C)(C)C)on4)cc3)nc2)CC1(C)C	3.35 z-score
OCCN1C[C@H](O)[C@@H](O)[C@H](O)[C@H]1CO	0.558 z-score and 0.314 z-score and -0.619 z-score
O=C1NCC2(CCN(CCc3ccccc3)CC2)O1	1.36 z-score
CCc1cc(C(C)=O)c(O)cc1OCCCCCC(C)(C)c1nn[nH]n1	0.0741 z-score
COc1c(C)cc(NC(=O)c2nn(Cc3ccc(F)cc3)c3c2CN(C(=O)c2ccc[nH]2)C[C@]3(C)C(N)=O)cc1C	3.11 z-score
CN(C(=O)C(Cl)Cl)c1ccc(OC(=O)c2ccco2)cc1	0.0117 z-score
Oc1ccc(-c2nc(-c3ccc(F)cc3)c(-c3ccncc3)[nH]2)cc1	-1.75 z-score
O=c1[nH]cnc2c1ncn2[C@H]1CC[C@@H](CO)O1	-1.04 z-score
Cn1c(=O)c2c(ncn2CC(O)CO)n(C)c1=O (stereo not drawn)	-0.398 z-score
CN[C@H](CC(C)C)C(=O)N[C@H]1C(=O)N[C@@H](CC(N)=O)C(=O)N[C@H]2C(=O)N[C@H]3C(=O)N[C@H](C(=O)N[C@H](C(=O)O)c4cc(O)cc(O)c4-c4cc3ccc4O)[C@H](O)c3ccc(c(Cl)c3)Oc3cc2cc(c3O[C@@H]2O[C@H](CO)[C@@H](O)[C@H](O)[C@H]2O[C@H]2C[C@](C)(N)[C@H](O)[C@H](C)O2)Oc2ccc(cc2Cl)[C@H]1O	1.28 z-score
Nc1ncnc2c1ncn2C1OC(C(=O)N2CCN(CC(=O)Nc3cccc4c3CNC4=O)CC2)C(O)C1O (stereo not drawn)	0.364 z-score

Sample 3
Compound: O=C(Nc1cnn(-c2csc(C(=O)NC3COC3)c2)c1)Nc1c(F)cccc1Cl
Observed: enzyme activity
Tested at: 5 µM
target	action	relative to	remaining activity [%]
Calcium/calmodulin-dependent protein kinase type II subunit beta (CAMK2B, Homo sapiens, UniProt Q13554)		untreated control	95.7
Tyrosine-protein kinase HCK (HCK, Homo sapiens, UniProt P08631)		untreated control	91
Tyrosine-protein kinase Fgr (FGR, Homo sapiens, UniProt P09769)		untreated control	95.5
Rho-associated protein kinase 1 (ROCK1, Homo sapiens, UniProt Q13464)		untreated control	75.7
Serine/threonine-protein kinase greatwall (MASTL, Homo sapiens, UniProt Q96GX5)	inhibitor		93.7
Mitogen-activated protein kinase kinase kinase 21 (MAP3K21, Homo sapiens, UniProt Q5TCX8)	inhibitor		94.3
Serine/threonine-protein kinase Nek3 (NEK3, Homo sapiens, UniProt P51956)		untreated control	82.3
Serine/threonine-protein kinase PAK 6 (PAK6, Homo sapiens, UniProt Q9NQU5)		untreated control	88.3
Receptor-type tyrosine-protein kinase FLT3 (FLT3, Homo sapiens, UniProt P36888)		untreated control	98.7
Serine/threonine-protein kinase Nek9 (NEK9, Homo sapiens, UniProt Q8TD19)		untreated control	85.8
Aurora kinase A (AURKA, Homo sapiens, UniProt O14965)		untreated control	82.1

Sample 4
Organism: Sarcocystis neurona
Observed: parasite activity
Tested at: 10 µM
Time: 96 h
Structure (SMILES)	activity class
O=C(O[C@H]1[C@H](Oc2ccccc2COC(=O)C2(O)C=CCCC2=O)O[C@H](CO)[C@@H](O)[C@@H]1O)c1ccccc1 (stereo partly drawn)	inactive
O=c1[nH]cc(F)c(=O)[nH]1	active
COc1cc(C)c(/C=C/C(C)=C/C=C/C(C)=C/C(=O)O)c(C)c1C	inactive
CCC1=C(C)CN(C(=O)NCCc2ccc(S(=O)(=O)NC(=O)N[C@H]3CC[C@H](C)CC3)cc2)C1=O	inactive
COc1cc(CNC(=O)CCCC/C=C\C(C)C)ccc1O	inactive
NC[C@H]1CC[C@H](C(=O)Oc2ccc(CCC(=O)O)cc2)CC1	inactive
CCN(CC)CC#CCOC(=O)C(O)(c1ccccc1)C1CCCCC1 (stereo not drawn)	inactive
CC(=O)OCC(=O)[C@@]1(O)CC[C@H]2[C@@H]3CCC4=CC(=O)CC[C@]4(C)[C@H]3[C@@H](O)C[C@@]21C	inactive
COCCCC/C(=N\OCCN)c1ccc(C(F)(F)F)cc1	inactive
Oc1c(Cl)cc(Cl)c2cccnc12	active

Repeated from above (sample 2):
Compound	nuclei count
CN(C(=O)C(Cl)Cl)c1ccc(OC(=O)c2ccco2)cc1	0.0117 z-score
Oc1ccc(-c2nc(-c3ccc(F)cc3)c(-c3ccncc3)[nH]2)cc1	-1.75 z-score
O=c1[nH]cnc2c1ncn2[C@H]1CC[C@@H](CO)O1	-1.04 z-score
Cn1c(=O)c2c(ncn2CC(O)CO)n(C)c1=O (stereo not drawn)	-0.398 z-score
